Experimental data of several laboratories.
A part holds a random share of what one study measured. Changes are numbered by the printed parent chain.

Sample 1 — technique: RNA Bind-n-Seq; form: RNA; matrix: in vitro; tested at: 365 nM; baseline: no-protein control; direction: higher = stronger binding
Target: RNA binding protein fox-1 homolog 2, RRM domain, GST-SBP tag (RBFOX2, Homo sapiens, UniProt O43251-10, residues 100-194)
Notes: natural RNA segment, single round, ends assumed
Constant ends, left off below: GGGAGUUCUACAGUCCGACGAUC … UGGAAUUCUCGGGUGCCAA
Construct (chain): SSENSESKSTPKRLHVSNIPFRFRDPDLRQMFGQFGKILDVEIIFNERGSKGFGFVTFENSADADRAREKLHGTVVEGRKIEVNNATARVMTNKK
Sequence | RBNS enrichment (R)
CCCAGAUGCCUCCUCUGUCCUCAUUCUUCUCUCCCACACAAGCAGUCUUUUUCUACAGCCAGUAAGGCAGCUCUGUCGUGGUAGCAGAUGGUCCCAUUAUUCUAGGGUCU | 0.411
GAUUGAACUCUGAAUUAACACAGUAUUCAUUCAUCUGUGUUAUUUUGUAAAAAUAACUGUAGCUUAUAUUCUUUAUUUGUGCAUACCAAUGUGAAAAUCCACUCUUUUAU | 1.12
GACUGUAGAGAAACUACUUUGAACCUGUGGUUGAAAACGAUGAAAUGUGAUAAAUCUUUUUGUAGUUCCUUGGAGGAUAGCUGAUAUCCCACUCCUUCGUUUUUCCUCUC | 0.447
CUCACCUCCUUCCCAUCCCGCCGAGCGUCCCAGACACUAACUCUUCCCAGAUGAUGACAAUGAAAUUAGUGCCUGUUUUCUUGCAAAUUUAGCACUGGGGACACUUAAAG | 0.824
CUUAUGAACCUUUACAUCCAGAUAGGUUACCAGUAACGGAACAGUAUCCAGUACUCCUGGUUCCUAGGUGAGCAGGUGAUGCCCCAGGGACCUUUGUAGCCACUUCACUU | 0.338
CAUAGAAAUAUCAAACAGUGAAAAACCAAACCUCCACAAGGCAACAGCCACAGCAGCCUCUCCUUGCCACUUGCAAGACCCUAGGAGUUGCAGACUUGAAAAAGCUCUGU | 0.542
AAAAUGACAAGCAUUGCAUCCCAGUCUUGUGUUCCGAAGUCAGUCGGAGUACUUGAAGAAGGCCCACGGGCGGCACGGAGUUCCUGAGCCCUUUCUGUAGUGGGGGAAAG | 2.1
UGGAAGACCUGUUUGAAAUUAGUCUUGAUUUCACACUCAUUUAAUCUGCUGAGCACAGGGCUGUUGUCAUUUGUAAACGCAAACACUGUGGAGGUACUUCUCGCCAUCAG | 0.245
UGGCCUUGGUGUGGAGGGGCUGUACUCUGAGCCCAAGUGAGUCAGCUAUAGGAAGAGGCCAUACCUAGAGCCAAGAACCAUGAAGGCCUGAGAGACGGCAGACUGAGCAG | 0.901
AUCUUAUACUGUCCCCCUUUCUAAUGGCCACUCUUUAGUGUUUGUGUCUAAUGUUAAUGCUUAAAGCACAGGACCCCCAUGUAGCUUCCUCUGACUUGGUUUGUAAGUAA | 0.664
AACUCUUUUGAAAUAACUUUGGUGCCCAGGCCAAGUAGAAUGAGAUGAGACUGAGUUUGGCCUCUGGCUCGGUUUCCUUUCUUUGGUCUGAUACUUCAUGUAUUUGAAUA | 0.555
GCUUGGAGAGCUGGGCUCUCGCAUGUCAUGUUUAGCCCACUGAGAAUAUACCCUCAGGUGACUCCCUCCGAUCCUGAAAGGGAAAGCAGCUGUCACCUGACUUCUGGCGG | 6.44

Sample 2 — technique: DHFR PCA, deep sequencing; matrix: yeast; with: (+)-ABA 2500 µM; baseline: wild-type fitted maximum; direction: higher = stronger binding
Target: ABI1, truncated, D143A, DHFR fusion (Arabidopsis thaliana)
Notes: methotrexate growth selection, single substitutions
Starting sequence: PYL1, truncated, DHFR fusion (Arabidopsis thaliana); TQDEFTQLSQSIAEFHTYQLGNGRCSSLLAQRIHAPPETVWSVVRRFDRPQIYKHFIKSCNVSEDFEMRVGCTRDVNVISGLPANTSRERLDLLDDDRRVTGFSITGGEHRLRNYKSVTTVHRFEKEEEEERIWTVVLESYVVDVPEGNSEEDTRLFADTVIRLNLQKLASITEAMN; partner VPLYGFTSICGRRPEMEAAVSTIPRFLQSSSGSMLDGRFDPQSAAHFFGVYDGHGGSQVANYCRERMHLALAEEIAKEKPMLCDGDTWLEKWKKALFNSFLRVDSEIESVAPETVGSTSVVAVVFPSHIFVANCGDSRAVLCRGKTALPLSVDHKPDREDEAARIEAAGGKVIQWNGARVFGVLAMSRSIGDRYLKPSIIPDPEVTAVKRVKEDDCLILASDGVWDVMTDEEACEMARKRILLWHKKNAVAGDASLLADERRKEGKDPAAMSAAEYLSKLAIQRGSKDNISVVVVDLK
Substitution | relative binding score [%]
A84N | 56
E151V | 99.3
Y18P | 102
N149Y | 56.2
V70W | 74.9
R49N | 99.4
H110E | 32.7
R69C | 94.1
L20Y | 93.5
P37N | 84.5
R163F | 56.5
L20I | 97.9
T73C | 96.1
D3I | 94.5
L112R | 2
K126H | 96.6
I33S | 60

Sample 3 — technique: RNA Bind-n-Seq; form: RNA; matrix: in vitro; tested at: 200 nM; notes: whole 134-nt RNA, ends assumed; with: 150 mM LiCl; baseline: input library; direction: higher = stronger binding; each molecule: 7-deaza-guanosine replaces G
Target: Ras GTPase-activating protein-binding protein 1, full length (G3BP1, Homo sapiens, UniProt Q13283)
Sequence of UniProt Q13283 (whole entry, looked up): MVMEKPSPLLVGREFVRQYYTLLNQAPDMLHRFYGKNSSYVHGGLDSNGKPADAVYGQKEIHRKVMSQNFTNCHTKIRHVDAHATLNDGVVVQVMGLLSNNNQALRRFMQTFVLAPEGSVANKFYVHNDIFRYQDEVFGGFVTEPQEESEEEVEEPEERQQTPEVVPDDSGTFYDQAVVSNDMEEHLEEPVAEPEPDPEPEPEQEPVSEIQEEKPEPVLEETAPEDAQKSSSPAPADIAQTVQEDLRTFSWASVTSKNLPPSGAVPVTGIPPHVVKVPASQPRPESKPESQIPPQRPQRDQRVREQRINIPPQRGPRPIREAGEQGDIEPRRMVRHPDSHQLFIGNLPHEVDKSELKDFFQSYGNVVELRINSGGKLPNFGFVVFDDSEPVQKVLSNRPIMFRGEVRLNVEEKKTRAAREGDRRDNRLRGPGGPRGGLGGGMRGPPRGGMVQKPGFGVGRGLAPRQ
Constant ends, left off below: GGGAGUUCUACAGUCCGACGAUC … UGGAAUUCUCGGGUGUCAAGG
Sequence | log2 enrichment
CACAGACAACACGCACCCACACAGACACAGAGGGAAGGGGUUGGGAUGCGGACAGGGUGCACAGCAGGGCGGGGUAGGACCCCAGCCCCU | -1.49
GUCCUGUGCUACACAUCGUAUGUACCGAAUCGGUUUUUUGGUUUUUUGGGGUUUUUUGGAAAGUAUUAUGUUACGCCGUUCGGAUCUGCA | -0.606
CACAGAAAACACGCACCCACACAGACACAGAGGGAAGGGGUUGGGAUGGGGACAGGGUGCACAGCAGGGCGGGGUAGGACCCCAGCCCCU | 0.257
GUCCUGUGCUACACAUCGUAUGUACCGAAUCGGGGAAAGGGGUUUGGGGUUUUUGGGGAAAGUAUUAUGUUACGCCGUUCGGAUCUGCAC | -0.725
GUCCUGUGCUACACAUCGUAUGUACCGAAUCGGGGAAAGGGGUUUUUUUGGGGAGGGGAAAGUAUUAUGUUACGCCGUUCGGAUCUGCAC | -0.355
ACCAUGCAGGUGGGCAUCUUAGGGAAGUGGGGCAAGGGGGGGAUAGGGAGGGGGGUAACACUUUGGGAACAGGUGGUCCCAGGUCGUUUC | 0.187
UCAAGUCCUGUGCUACACAUCGUAUGUACCGAAUCGGUUUUUUUGGAGGAAAGGAAAGUAUUAUGUUACGCCGUUCGGAUCUGCACUUCC | 0.165
CAAGUCCUGUGCUACACAUCGUAUGUACCGAAUCGGUUUUUGGAAAAAGGUUUGGAAAGUAUUAUGUUACGCCGUUCGGAUCUGCACUUC | -2.5
GUCCUGUGCUACACAUCGUAUGUACCGAAUCGGGGUUUGGGGAGGGGUUUUUUUGGGGAAAGUAUUAUGUUACGCCGUUCGGAUCUGCAC | 0.0362
CAAGUCCUGUGCUACACAUCGUAUGUACCGAAUCGGAGGUUUUUGGAAAAAAAGGAAAGUAUUAUGUUACGCCGUUCGGAUCUGCACUUC | -0.253
AGUCCUGUGCUACACAUCGUAUGUACCGAAUCAAACCCAAAUUUUUUUAAACCCAAAAAAGUAUUAUGUUACGCCGUUCGGAUCUGCACU | 1.45

Sample 4 — technique: aptamer microarray, sandwich; form: DNA with 2'F-ANA; matrix: in vitro; tested at: 200 nM; with: Cy3 exosite-II aptamer, 400 nM; direction: higher = stronger binding; sequence: GGTTGGTGTGGTTGG
Target: Prothrombin, mature alpha-thrombin (F2, Homo sapiens, UniProt P00734)
Notes: whole 15-mer aptamer, many near background
Modification | mean fluorescence intensity [a.u.]
2'F-ANA at 1 2 3 7 8 9 10 12 | 107
2'F-ANA at 2 3 5 6 7 9 10 12 13 | 53.4
2'F-ANA at 1 2 4 8 9 13 15 | 92
2'F-ANA at 6 9 10 11 13 | 130
2'F-ANA at 2 4 7 12 15 | 694
2'F-ANA at 3 4 7 9 11 13 14 | 260
2'F-ANA at 2 4 6 7 9 10 11 12 13 15 | 76.5
2'F-ANA at 2 6 9 15 | 365
2'F-ANA at 1 2 3 4 5 6 7 8 9 11 13 | 56.6
2'F-ANA at 3 4 7 8 9 11 12 15 | 794
2'F-ANA at 6 9 10 12 | 213
2'F-ANA at 1 6 11 13 14 15 | 54.6
2'F-ANA at 1 2 3 4 6 8 9 11 12 14 15 | 71.2
2'F-ANA at 1 2 8 9 11 12 14 15 | 68.4
2'F-ANA at 2 4 5 6 7 9 10 11 13 14 15 | 48.6
2'F-ANA at 6 11 12 13 14 | 199
2'F-ANA at 2 4 7 9 10 12 15 | 155
2'F-ANA at 1 3 6 7 8 9 13 14 15 | 84.6
2'F-ANA at 1 3 5 7 10 11 14 | 43.7
2'F-ANA at 3 5 7 10 14 15 | 49.2
2'F-ANA at 2 5 6 7 8 10 12 13 14 | 48.4
2'F-ANA at 3 4 5 6 9 14 15 | 143

For quick reference, copied from above (sample 1):
Sequence | RBNS enrichment (R)
AAAAUGACAAGCAUUGCAUCCCAGUCUUGUGUUCCGAAGUCAGUCGGAGUACUUGAAGAAGGCCCACGGGCGGCACGGAGUUCCUGAGCCCUUUCUGUAGUGGGGGAAAG | 2.1
AACUCUUUUGAAAUAACUUUGGUGCCCAGGCCAAGUAGAAUGAGAUGAGACUGAGUUUGGCCUCUGGCUCGGUUUCCUUUCUUUGGUCUGAUACUUCAUGUAUUUGAAUA | 0.555
CUCACCUCCUUCCCAUCCCGCCGAGCGUCCCAGACACUAACUCUUCCCAGAUGAUGACAAUGAAAUUAGUGCCUGUUUUCUUGCAAAUUUAGCACUGGGGACACUUAAAG | 0.824
AUCUUAUACUGUCCCCCUUUCUAAUGGCCACUCUUUAGUGUUUGUGUCUAAUGUUAAUGCUUAAAGCACAGGACCCCCAUGUAGCUUCCUCUGACUUGGUUUGUAAGUAA | 0.664
GCUUGGAGAGCUGGGCUCUCGCAUGUCAUGUUUAGCCCACUGAGAAUAUACCCUCAGGUGACUCCCUCCGAUCCUGAAAGGGAAAGCAGCUGUCACCUGACUUCUGGCGG | 6.44
CAUAGAAAUAUCAAACAGUGAAAAACCAAACCUCCACAAGGCAACAGCCACAGCAGCCUCUCCUUGCCACUUGCAAGACCCUAGGAGUUGCAGACUUGAAAAAGCUCUGU | 0.542
